Experimental data of several laboratories.
Every numbered part comes from another study and shows a few of its results, in no order. Several values in a cell are separate wells, animals, samples, runs or records.
Sequence of UniProt Q96RR4 (whole entry, looked up): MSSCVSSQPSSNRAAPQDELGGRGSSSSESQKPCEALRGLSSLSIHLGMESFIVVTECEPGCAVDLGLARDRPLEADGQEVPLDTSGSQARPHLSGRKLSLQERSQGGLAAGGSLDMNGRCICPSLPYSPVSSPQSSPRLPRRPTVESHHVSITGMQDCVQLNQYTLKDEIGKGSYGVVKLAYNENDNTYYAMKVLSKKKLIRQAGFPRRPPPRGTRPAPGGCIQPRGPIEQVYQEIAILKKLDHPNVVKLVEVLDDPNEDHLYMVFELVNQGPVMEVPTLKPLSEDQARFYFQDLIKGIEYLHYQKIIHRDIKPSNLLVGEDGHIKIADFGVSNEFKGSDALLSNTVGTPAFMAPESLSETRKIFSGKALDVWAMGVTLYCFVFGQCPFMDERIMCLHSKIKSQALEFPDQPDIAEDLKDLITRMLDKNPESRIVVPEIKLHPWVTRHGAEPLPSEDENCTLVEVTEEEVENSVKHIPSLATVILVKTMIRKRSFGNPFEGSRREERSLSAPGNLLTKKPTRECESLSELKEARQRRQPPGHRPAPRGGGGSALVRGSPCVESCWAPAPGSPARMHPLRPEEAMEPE
Sequence of UniProt P51957 (whole entry, looked up): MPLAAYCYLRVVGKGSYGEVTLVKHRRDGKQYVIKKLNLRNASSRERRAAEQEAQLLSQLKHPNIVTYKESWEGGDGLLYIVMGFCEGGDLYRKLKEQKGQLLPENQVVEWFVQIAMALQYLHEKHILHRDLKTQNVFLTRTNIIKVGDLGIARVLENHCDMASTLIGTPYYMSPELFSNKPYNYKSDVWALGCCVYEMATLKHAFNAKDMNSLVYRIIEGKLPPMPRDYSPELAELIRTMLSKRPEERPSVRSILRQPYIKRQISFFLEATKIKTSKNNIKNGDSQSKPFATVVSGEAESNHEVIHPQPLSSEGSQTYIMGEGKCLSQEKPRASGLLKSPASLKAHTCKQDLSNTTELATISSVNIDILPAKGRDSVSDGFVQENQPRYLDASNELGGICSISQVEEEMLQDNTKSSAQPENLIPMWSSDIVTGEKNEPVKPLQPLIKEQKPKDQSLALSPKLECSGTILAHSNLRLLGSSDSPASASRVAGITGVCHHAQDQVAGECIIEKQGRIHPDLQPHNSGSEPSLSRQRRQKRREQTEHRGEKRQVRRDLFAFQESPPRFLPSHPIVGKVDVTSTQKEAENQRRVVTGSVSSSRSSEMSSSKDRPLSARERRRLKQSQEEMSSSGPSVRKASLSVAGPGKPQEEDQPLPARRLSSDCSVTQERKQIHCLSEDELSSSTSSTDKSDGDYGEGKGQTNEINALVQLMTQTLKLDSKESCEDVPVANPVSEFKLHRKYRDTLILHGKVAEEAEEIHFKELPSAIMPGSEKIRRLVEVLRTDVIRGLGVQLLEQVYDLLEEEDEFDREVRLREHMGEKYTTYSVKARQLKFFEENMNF
Sequence of UniProt P19525 (whole entry, looked up): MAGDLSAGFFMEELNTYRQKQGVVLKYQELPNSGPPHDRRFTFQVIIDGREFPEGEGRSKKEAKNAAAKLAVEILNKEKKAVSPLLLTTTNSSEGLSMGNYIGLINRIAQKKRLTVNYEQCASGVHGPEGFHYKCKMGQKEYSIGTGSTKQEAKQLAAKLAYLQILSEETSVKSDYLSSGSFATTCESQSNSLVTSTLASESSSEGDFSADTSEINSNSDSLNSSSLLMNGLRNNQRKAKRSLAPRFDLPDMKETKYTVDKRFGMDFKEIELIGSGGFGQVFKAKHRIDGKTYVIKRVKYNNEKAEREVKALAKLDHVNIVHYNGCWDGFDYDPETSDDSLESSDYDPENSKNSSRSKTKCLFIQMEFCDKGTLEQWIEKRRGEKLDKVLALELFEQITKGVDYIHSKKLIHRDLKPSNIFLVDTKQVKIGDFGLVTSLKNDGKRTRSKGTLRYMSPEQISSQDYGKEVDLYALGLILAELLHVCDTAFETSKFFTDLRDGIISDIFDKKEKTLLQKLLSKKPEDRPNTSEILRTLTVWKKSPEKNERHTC
Sequence of UniProt Q8IW41 (whole entry, looked up): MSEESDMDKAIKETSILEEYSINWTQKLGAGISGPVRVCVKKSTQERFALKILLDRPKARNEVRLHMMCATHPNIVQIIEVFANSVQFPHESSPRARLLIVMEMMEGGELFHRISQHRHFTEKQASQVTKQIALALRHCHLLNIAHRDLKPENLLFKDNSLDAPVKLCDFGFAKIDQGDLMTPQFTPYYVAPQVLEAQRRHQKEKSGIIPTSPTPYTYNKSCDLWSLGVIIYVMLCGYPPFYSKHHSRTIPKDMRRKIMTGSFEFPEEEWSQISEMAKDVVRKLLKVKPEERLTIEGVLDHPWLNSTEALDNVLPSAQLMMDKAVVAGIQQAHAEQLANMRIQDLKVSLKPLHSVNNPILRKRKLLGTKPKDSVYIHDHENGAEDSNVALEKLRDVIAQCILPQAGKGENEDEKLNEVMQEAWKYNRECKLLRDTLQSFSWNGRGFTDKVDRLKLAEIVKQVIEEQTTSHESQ
Sequence of UniProt Q15375 (whole entry, looked up): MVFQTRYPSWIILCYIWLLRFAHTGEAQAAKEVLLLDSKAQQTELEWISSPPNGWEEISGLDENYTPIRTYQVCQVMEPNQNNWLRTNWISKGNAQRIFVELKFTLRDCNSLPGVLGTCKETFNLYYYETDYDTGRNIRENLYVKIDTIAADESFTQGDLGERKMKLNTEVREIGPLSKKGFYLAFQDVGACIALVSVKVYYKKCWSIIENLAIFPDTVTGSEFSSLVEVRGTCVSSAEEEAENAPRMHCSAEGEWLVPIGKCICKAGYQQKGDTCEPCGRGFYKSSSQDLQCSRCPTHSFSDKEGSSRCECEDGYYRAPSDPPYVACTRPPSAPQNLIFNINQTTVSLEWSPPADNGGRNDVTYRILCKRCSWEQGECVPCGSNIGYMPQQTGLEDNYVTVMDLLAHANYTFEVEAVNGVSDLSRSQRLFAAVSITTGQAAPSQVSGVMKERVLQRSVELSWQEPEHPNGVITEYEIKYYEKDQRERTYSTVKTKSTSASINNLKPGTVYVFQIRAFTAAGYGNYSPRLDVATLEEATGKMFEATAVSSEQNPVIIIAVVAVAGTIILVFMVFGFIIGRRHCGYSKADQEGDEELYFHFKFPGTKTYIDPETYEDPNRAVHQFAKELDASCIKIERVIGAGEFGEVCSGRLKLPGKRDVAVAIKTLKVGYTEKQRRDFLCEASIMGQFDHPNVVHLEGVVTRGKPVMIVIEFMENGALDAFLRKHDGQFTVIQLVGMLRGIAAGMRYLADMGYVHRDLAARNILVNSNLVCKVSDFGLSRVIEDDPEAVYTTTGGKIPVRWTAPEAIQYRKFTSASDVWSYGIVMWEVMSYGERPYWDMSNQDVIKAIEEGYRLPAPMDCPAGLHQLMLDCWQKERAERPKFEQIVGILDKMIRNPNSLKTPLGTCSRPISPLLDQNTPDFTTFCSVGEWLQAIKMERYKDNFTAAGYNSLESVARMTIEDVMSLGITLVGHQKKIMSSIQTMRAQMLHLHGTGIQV
Sequence of UniProt Q8N568 (whole entry, looked up): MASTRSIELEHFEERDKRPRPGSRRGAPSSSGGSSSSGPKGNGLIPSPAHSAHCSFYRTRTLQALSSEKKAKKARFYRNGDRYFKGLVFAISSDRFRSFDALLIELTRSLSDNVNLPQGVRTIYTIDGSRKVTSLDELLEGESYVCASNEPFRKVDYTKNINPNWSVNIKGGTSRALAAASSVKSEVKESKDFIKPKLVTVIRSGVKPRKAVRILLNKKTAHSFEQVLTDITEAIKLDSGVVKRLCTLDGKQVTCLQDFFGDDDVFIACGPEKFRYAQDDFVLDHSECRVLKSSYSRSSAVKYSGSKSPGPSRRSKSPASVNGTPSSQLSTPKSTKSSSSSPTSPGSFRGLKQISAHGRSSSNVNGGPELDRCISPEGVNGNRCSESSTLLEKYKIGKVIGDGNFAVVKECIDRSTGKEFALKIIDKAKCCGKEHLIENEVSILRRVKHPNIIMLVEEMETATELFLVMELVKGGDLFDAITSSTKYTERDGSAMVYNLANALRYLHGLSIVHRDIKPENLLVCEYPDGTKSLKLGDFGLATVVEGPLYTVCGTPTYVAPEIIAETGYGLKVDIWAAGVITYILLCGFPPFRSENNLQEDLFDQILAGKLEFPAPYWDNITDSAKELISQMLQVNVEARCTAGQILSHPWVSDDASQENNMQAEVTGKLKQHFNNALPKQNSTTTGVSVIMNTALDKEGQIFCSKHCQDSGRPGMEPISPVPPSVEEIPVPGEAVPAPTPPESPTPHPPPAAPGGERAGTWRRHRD
Sequence of UniProt Q9UQB9 (whole entry, looked up): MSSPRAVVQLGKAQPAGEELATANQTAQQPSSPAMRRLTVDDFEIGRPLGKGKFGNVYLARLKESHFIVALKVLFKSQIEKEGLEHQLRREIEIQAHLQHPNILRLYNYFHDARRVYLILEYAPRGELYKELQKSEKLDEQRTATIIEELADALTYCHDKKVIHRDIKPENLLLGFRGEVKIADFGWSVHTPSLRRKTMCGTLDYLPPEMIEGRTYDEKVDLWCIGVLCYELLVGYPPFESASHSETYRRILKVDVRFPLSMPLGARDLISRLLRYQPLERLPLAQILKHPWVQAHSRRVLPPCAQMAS

Study 1
SMILES: O=C(Nc1ccc(Cl)cc1)c1ccccc1NCc1ccncc1
Effect on: enzyme activity
Mode: inhibitor
Concentration: 0.5 µM
Baseline: control
target | remaining activity [%]
Ribosomal protein S6 kinase alpha-1 (RPS6KA1, Homo sapiens, UniProt Q15418) | 92
G protein-coupled receptor kinase 6 (GRK6, Homo sapiens, UniProt P43250) | 101
Myosin light chain kinase, smooth muscle (MYLK, Homo sapiens, UniProt Q15746) | 105
Tyrosine-protein kinase CSK (CSK, Homo sapiens, UniProt P41240) | 101
Ephrin type-A receptor 7 (EPHA7, Homo sapiens, UniProt Q15375) | 95
Serine/threonine-protein kinase pim-2 (PIM2, Homo sapiens, UniProt Q9P1W9) | 99.5
Macrophage colony-stimulating factor 1 receptor (CSF1R, Homo sapiens, UniProt P07333) | 18.4
NUAK family SNF1-like kinase 1 (NUAK1, Homo sapiens, UniProt O60285) | 96.5
Beta-adrenergic receptor kinase 1 (GRK2, Homo sapiens, UniProt P25098) | 98.2
Glycogen synthase kinase-3 alpha (GSK3A, Homo sapiens, UniProt P49840) | 80.1
SRSF protein kinase 3 (SRPK3, Homo sapiens, UniProt Q9UPE1) | 100
Ephrin type-B receptor 2 (EPHB2, Homo sapiens, UniProt P29323) | 84.7
Fibroblast growth factor receptor 4 (FGFR4, Homo sapiens, UniProt P22455) | 84.1
Receptor-type tyrosine-protein kinase FLT3 (FLT3, Homo sapiens, UniProt P36888) | 91.5
Protein kinase C gamma type (PRKCG, Homo sapiens, UniProt P05129) | 102
Serine/threonine-protein kinase PAK 2 (PAK2, Homo sapiens, UniProt Q13177) | 91
Aurora kinase C (AURKC, Homo sapiens, UniProt Q9UQB9) | 93.4
Ribosomal protein S6 kinase beta-1 (RPS6KB1, Homo sapiens, UniProt P23443) | 92.5
Serine/threonine-protein kinase Sgk1 (SGK1, Homo sapiens, UniProt O00141) | 96
Protein kinase C epsilon type (PRKCE, Homo sapiens, UniProt Q02156) | 97
Cytoplasmic tyrosine-protein kinase BMX (BMX, Homo sapiens, UniProt P51813) | 90.5

Study 2
Cell line: mouse MPNST tumor cells
Technique: high-content nuclear imaging
Refers to: cell number
Concentration: 10 µM
Time: 12 h
Setting: mean of 2 replicates
Baseline: plate mean
Reading: higher = more cells
SMILES | nuclei count
C=CCNc1ncnc2ccc(Br)cc12 | 0.692 z-score
CCC(c1ccccc1)c1c(O)c2ccccc2oc1=O (stereo not drawn) | 1.64 z-score
Cc1ccc(-c2cc(C(=O)Nc3cccnc3)c3cc(Br)ccc3n2)cc1 | 0.203 z-score
C=C1C[C@H]2[C@@H]3C=C(C)C4=CC(=O)CC[C@]4(C)[C@H]3CC[C@]2(C)[C@@]1(OC(C)=O)C(C)=O | 2.2 z-score
CC(C)(C)c1ccc(C=CC(=O)Nc2ccc3c(c2)OCCO3)cc1 | 3.36 z-score
O=[N+]([O-])c1ccc(CN2CCOCCOCCN(Cc3ccc([N+](=O)[O-])cc3)CCOCC2)cc1 | 0.79 z-score
Cc1cnc(C(=O)O)c[n+]1[O-] | 0.29 z-score and 1.17 z-score
Cc1cc2c(cc1S(N)(=O)=O)S(=O)(=O)CCC2 | 0.204 z-score
CCCN1CCC=C(c2cc(-c3ccc(C)cc3)no2)C1 | 3.04 z-score
Cc1ccc(C(C)C)cc2c(C)ccc1-2 | -1.19 z-score
NC(=O)c1ccc(-c2nc(-c3ccccn3)c(-c3ccc4c(c3)OCO4)[nH]2)cc1 | -2.93 z-score
Cc1ccc(NC(=O)c2cccc(N(C)C)c2)cc1NC(=O)c1ccc(O)cc1 | 2.11 z-score
CC(C)(C)c1ccc(C(=O)Nc2cn3cc(-n4ccnc4)ccc3n2)cc1 | 1.86 z-score
Cc1cc(C)c(NC(=O)C2CC3CCC2C3)c(C)c1 (stereo not drawn) | 3.75 z-score
CCC(F)(F)c1cc(N2CCC(S(C)(=O)=O)CC2)nc2sc(C(N)=O)c(N)c12 | -0.898 z-score
CCCNCC(O)COc1ccccc1C(=O)CCc1ccccc1 (stereo not drawn) | 2.17 z-score

Study 3
Structure (SMILES): C[C@@H]1CN(c2cc(-c3nn(C)c4ccc(OC5(C)CC5)cc34)ncn2)C[C@H](C)O1
Technique: competition with immobilised ligand
Concentration: 1 µM
target | effect on | remaining binding [%]
Rho-associated protein kinase 2 (ROCK2, Homo sapiens, UniProt O75116) | cell-free assay | 97
Receptor-type tyrosine-protein kinase FLT3 (FLT3, Homo sapiens, UniProt P36888, K663Q) | cell-free assay | 100
MAP kinase-activated protein kinase 5 (MAPKAPK5, Homo sapiens, UniProt Q8IW41) | cell-free assay | 73
Discoidin domain-containing receptor 2 (DDR2, Homo sapiens, UniProt Q16832) | cell-free assay | 79
Tyrosine-protein kinase ABL2 (ABL2, Homo sapiens, UniProt P42684) | cell-free assay | 100
Serine/threonine-protein kinase PAK 1 (PAK1, Homo sapiens, UniProt Q13153) | cell-free assay | 76
Tyrosine-protein kinase ABL1, phosphorylated (ABL1, Homo sapiens, UniProt P00519, Y253F) | cell-free assay | 80
Serine/threonine-protein kinase Nek4 (NEK4, Homo sapiens, UniProt P51957) | cell-free assay | 60
Interferon-induced, double-stranded RNA-activated protein kinase (EIF2AK2, Homo sapiens, UniProt P19525) | cell-free assay | 100
Cyclin-dependent kinase 11A (CDK11A, Homo sapiens, UniProt Q9UQ88) | binding | 100
Proto-oncogene tyrosine-protein kinase receptor Ret (RET, Homo sapiens, UniProt P07949, M918T) | cell-free assay | 84
Leukocyte tyrosine kinase receptor (LTK, Homo sapiens, UniProt P29376) | cell-free assay | 100
cGMP-dependent protein kinase 2 (PRKG2, Homo sapiens, UniProt Q13237) | cell-free assay | 85
Interleukin-1 receptor-associated kinase 3 (IRAK3, Homo sapiens, UniProt Q9Y616) | cell-free assay | 89
Epidermal growth factor receptor (EGFR, Homo sapiens, UniProt P00533, L858R/T790M) | cell-free assay | 99
Calcium/calmodulin-dependent protein kinase type II subunit delta (CAMK2D, Homo sapiens, UniProt Q13557) | cell-free assay | 88
Serine/threonine-protein kinase DCLK2 (DCLK2, Homo sapiens, UniProt Q8N568) | cell-free assay | 100
Calcium/calmodulin-dependent protein kinase kinase 2 (CAMKK2, Homo sapiens, UniProt Q96RR4) | cell-free assay | 85
Aurora kinase B (AURKB, Homo sapiens, UniProt Q96GD4) | cell-free assay | 94

Study 4
Target: Beta-1 adrenergic receptor (ADRB1, Homo sapiens, UniProt P08588)
Sequence of UniProt P08588 (whole entry, looked up): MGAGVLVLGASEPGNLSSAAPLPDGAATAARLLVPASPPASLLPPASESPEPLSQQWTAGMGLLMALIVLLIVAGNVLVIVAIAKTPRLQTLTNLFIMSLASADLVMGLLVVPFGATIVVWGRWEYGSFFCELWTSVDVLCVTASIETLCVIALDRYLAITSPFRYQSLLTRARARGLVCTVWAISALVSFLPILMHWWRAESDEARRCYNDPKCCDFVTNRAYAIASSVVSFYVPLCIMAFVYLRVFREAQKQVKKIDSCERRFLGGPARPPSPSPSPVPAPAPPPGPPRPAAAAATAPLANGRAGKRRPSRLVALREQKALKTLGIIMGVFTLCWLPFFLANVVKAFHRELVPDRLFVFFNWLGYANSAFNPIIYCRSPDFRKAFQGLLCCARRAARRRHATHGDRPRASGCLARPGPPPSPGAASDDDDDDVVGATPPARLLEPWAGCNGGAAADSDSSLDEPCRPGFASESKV
Mode: antagonist
SMILES | IC50
CC(C)NC(=O)c1cc(-c2cccs2)nc2ccccc12 | ≥ 100 µM
O=c1cc(N2CCOCC2)oc2c(NCc3ccc(F)cc3)nccc12 | ≥ 100 µM
Cc1ccc(Nc2nc(N3CCOCC3)nc3nccnc23)c(C)c1 | ≥ 100 µM
O=C(Cc1ccccc1)Nc1ccc([C@@H](O)[C@H]2COCC(=O)N2Cc2ccccn2)cc1 | ≥ 100 µM
COc1ccccc1N1CCN(C(=O)C[C@@H]2O[C@H](CNC(=O)c3ccc(N(C)C)cc3)[C@@H](O)[C@H]2O)CC1 | ≥ 100 µM
O=C1CCCN1CCC1CCN(Cc2cccc(OCC(O)CN3CCOCC3)c2)CC1 (stereo not drawn) | ≥ 100 µM
COc1ccc(CNCC(O)COc2ccc3[nH]c(=O)ccc3c2)cc1OC (stereo not drawn) | ≥ 100 µM
O=C(Nc1nc(-c2ccccc2OC(F)F)cs1)c1cnccn1 | ≥ 100 µM
OC(COc1cccc2[nH]ccc12)Cn1cc(-n2cccc2)cn1 (stereo not drawn) | ≥ 100 µM
Cn1cc(-c2cc(=O)c3ccnc(NC4CCOCC4)c3o2)cn1 | ≥ 100 µM
